Published values collected from several papers.
Numbered parts are unrelated; each lists some results of a single study.

Block 1 — technique: universal PBM; molecule type: double-stranded DNA, one strand shown; sample: in vitro; concentration: 600 nM; direction: higher = stronger binding; measurement: E-score
Target: Sal-like protein 4, full length isoform A (SALL4, Homo sapiens, UniProt Q9UJQ4, residues 1-1053)
UniProt Q9UJQ4, sequence (whole entry, looked up): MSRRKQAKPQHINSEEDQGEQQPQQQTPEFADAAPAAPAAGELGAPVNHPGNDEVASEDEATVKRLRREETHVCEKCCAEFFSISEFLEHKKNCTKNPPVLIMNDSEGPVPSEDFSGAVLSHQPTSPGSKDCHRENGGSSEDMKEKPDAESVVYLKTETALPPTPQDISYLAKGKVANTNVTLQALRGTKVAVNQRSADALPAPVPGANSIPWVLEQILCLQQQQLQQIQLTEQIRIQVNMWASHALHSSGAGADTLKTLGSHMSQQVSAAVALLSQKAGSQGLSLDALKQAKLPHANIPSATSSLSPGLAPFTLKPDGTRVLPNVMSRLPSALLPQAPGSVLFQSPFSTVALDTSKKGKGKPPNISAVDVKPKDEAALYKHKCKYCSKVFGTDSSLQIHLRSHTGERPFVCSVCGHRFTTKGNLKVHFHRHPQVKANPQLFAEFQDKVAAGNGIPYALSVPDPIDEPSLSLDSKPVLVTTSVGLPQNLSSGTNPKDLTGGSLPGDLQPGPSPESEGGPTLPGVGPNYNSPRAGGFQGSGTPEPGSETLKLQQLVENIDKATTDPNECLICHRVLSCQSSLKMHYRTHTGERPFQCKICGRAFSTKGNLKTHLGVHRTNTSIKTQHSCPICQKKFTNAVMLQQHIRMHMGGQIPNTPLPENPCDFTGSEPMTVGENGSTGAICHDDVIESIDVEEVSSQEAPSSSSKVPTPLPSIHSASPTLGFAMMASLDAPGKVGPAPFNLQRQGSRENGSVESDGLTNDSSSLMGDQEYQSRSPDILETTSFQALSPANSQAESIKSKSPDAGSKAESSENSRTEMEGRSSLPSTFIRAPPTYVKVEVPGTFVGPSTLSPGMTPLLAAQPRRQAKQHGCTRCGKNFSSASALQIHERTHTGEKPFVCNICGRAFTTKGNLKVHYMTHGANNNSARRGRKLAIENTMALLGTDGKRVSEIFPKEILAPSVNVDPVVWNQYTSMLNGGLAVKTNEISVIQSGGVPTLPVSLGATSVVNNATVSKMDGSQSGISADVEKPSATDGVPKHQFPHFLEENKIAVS
Setting: 8-mer, flanks averaged, mean of replicates
TAGAGCGA: -0.0884
GGGTACCA: -0.274
ATCGAGAT: 0.0422
CGTGAAAA: 0.132
TAGGGCCA: -0.2
GCAAGCGC: -0.144
ACCCGATC: -0.216
AGAGCCCT: -0.173
GGCGTAAC: -0.121
CTTAATAA: 0.317
ATCTCTTA: 0.178
AAAACGTA: 0.15
TACGACAA: 0.128
AAAATAAC: 0.338
CGGAGCCC: -0.433
ACCGCCGT: -0.241

Block 2 — technique: RNA Bind-n-Seq; molecule type: RNA; sample: in vitro; concentration: 200 nM; setting: whole 134-nt RNA, ends assumed; with: 150 mM KCl; relative to: input library; direction: higher = stronger binding; measurement: log2 enrichment
Target: Ras GTPase-activating protein-binding protein 1, full length (G3BP1, Homo sapiens, UniProt Q13283)
UniProt Q13283, sequence (whole entry, looked up): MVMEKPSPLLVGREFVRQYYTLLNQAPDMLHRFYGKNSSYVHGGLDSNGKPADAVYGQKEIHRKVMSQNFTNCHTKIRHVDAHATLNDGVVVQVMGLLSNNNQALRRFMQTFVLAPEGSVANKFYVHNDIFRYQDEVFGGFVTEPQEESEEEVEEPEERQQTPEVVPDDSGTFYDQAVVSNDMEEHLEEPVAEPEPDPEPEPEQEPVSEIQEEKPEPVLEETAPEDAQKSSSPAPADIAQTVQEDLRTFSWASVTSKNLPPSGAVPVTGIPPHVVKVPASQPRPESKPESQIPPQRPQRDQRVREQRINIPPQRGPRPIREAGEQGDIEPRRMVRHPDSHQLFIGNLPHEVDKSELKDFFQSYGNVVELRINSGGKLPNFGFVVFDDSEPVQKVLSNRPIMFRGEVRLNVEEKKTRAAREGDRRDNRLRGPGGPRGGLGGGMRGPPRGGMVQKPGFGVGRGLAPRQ
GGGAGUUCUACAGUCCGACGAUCUGCGAUAUGAACGUUCACAAGCAAUGCGUCAUCAAUGUCCCCAGCCUCUGCGGAAUGGAUCACACUGAGAAGAGGGGGCGGAUUUACCUAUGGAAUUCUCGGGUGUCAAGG: -1.21
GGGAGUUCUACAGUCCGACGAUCUCAAGUCCUGUGCUACACAUCGUAUGUACCGAAUCGGUGGAAAAAAAGGAAAGGAAAGUAUUAUGUUACGCCGUUCGGAUCUGCACUUCCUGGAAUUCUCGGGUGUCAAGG: -0.831
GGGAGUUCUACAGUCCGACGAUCGCAGGAAGUAAAAACAAAUGGAAAUGCUUCGGAUAGUGGCAGGGGUGGGGGUUGCUAAGGAAAGGGUGGGACGGGAGUGGGUAAAGAGUUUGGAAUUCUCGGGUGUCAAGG: 0.827
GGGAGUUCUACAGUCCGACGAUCAGUCCUGUGCUACACAUCGUAUGUACCGAAUCGGUUUUUGGAAAAAGGUUUUUUUGGAAAGUAUUAUGUUACGCCGUUCGGAUCUGCACUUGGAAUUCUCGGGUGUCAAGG: -1.72
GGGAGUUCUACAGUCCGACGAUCUCAAGUCCUGUGCUACACAUCGUAUGUACCGAAUCGGGGUUGGGUUGGGUUGGGAAAGUAUUAUGUUACGCCGUUCGGAUCUGCACUUCCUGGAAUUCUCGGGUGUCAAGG: 1.05
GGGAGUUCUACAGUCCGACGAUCAAGUCCUGUGCUACACAUCGUAUGUACCGAAUCAAAUUUAAAUUUUUAAAUUUAAAAAAGUAUUAUGUUACGCCGUUCGGAUCUGCACUUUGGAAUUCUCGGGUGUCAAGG: -1.86
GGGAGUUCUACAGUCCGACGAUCGUCCUGUGCUACACAUCGUAUGUACCGAAUCGGUUUUUUUGGAAAAAGGAAAAAAAGGAAAGUAUUAUGUUACGCCGUUCGGAUCUGCACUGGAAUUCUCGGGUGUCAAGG: -1.06
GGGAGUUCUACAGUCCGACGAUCGCAGGAAGUAAAAACAAAUGGAAAUGUUUCGGAUAGUGGCAGGGGUGGGGGUUGCUAAGGAAAGGGUGGGAUGGGAGUGGGUAAAGAGUUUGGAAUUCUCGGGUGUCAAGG: 1.22
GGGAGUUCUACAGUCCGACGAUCUCCUGUGCUACACAUCGUAUGUACCGAAUCGGGUUUUUUUGGGAAAGGGAAAAAAAGGGAAAGUAUUAUGUUACGCCGUUCGGAUCUGCAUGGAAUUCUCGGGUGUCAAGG: -0.27

Block 3 — technique: protein binding microarray; molecule type: double-stranded DNA, one strand shown; sample: in vitro; concentration: not given; relative to: not given; direction: higher = stronger binding; measurement: E-score
Target: Histone acetyltransferase KAT6A, both winged helices, GST fusion (KAT6A, Homo sapiens, UniProt Q92794, residues 1-181)
Setting: 8-mer, flanks averaged, mean of 2 arrays, mostly near background
Construct (chain): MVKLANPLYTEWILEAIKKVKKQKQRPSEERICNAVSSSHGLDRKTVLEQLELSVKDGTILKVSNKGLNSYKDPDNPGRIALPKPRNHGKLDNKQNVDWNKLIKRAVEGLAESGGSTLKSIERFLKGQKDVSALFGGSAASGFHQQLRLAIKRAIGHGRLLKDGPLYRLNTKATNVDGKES
CCTTCCCA: -0.165
AAACACTG: 0.056
AGTCATTG: -0.295
GCGATCAA: 0.064
CAGAATTC: -0.0305
CAAGAATG: -0.158
AGTTGACA: -0.136
ATAATTAC: -0.0473
CTACGTCC: 0.00721
CCATACGC: 0.00211
TGACCGCA: 0.14
GGCTGACC: -0.0711
GAGCATGA: 0.00335
CGGGGTAC: 0.149
ATAATATC: -1e-05
GAAATCTC: -0.0143

Block 4 — technique: RNA Bind-n-Seq; molecule type: RNA; sample: in vitro; concentration: 20 nM; setting: 6-mer, flanks averaged, single round; with: 150 mM LiCl; relative to: input library; direction: higher = stronger binding; measurement: 6-mer enrichment (R)
Target: TAR DNA-binding protein 43, full length, His tag (TARDBP, Homo sapiens, UniProt Q13148, residues 1-414)
UUACAC: 0.908
UGUUUC: 1.17
CGGAAG: 0.947
ACUGUA: 1
AUGACC: 0.868
GAUGCC: 0.947
GGCGUG: 1.28
ACCAUG: 0.882
GGAGGC: 1.11
CAACGG: 0.821
CAGUUG: 0.979
UGGGCC: 1.09
CCGUCA: 0.839
GGAAGC: 0.962
GAUCAU: 0.851
AUAUUG: 1.01
GCAACG: 0.878
GGCAGA: 1.01
UUACCA: 0.905
GAGAUG: 1.09
AUAGUG: 1.11
CUUCUA: 0.854
AAACCU: 0.813
UGUCCC: 1.09
UGACCC: 1.02

Block 5 — technique: protein-binding microarray; molecule type: double-stranded DNA, one strand shown; sample: in vitro; concentration: 250 nM; setting: 60-bp whole probe; with: salmon DNA 0.4 mg/ml; relative to: random background probes; direction: higher = stronger binding; measurement: log fluorescence; shared flanks, not repeated: GCCTAGCAC … GTCTTGATTCGCTTGACGCTGCTG
Target: Interferon regulatory factor 7, full length, phosphomimetic (IRF7, Homo sapiens, UniProt Q92985, residues 1-503, S101K/S471D/S472D/S475D/S476D/S477D/S483D/S484D/S487D)
Residues (chain): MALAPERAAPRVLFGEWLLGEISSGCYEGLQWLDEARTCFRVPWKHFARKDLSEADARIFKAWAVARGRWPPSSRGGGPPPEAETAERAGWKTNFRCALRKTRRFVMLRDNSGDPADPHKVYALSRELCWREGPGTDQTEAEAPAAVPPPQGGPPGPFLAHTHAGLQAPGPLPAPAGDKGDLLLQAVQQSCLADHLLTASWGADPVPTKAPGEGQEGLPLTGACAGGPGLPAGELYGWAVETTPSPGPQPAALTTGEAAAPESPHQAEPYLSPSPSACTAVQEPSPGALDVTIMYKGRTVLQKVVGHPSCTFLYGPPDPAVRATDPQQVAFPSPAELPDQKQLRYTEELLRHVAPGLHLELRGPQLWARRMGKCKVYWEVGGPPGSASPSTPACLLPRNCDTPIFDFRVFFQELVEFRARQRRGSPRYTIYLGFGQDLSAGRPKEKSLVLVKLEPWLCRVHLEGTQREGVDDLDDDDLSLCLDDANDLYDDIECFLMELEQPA
AACGGTATCGGGTTTCGGGACGTGCTA: 3.76 z-score
GACGGTCTCCTACTCCTGACGTGCTAG: -0.212 z-score
GACGATATCGGAACTGGAGACGTGCTA: 0.169 z-score
TTAGGCTTCCTTTTCCTTTAGTGCTAG: 0.659 z-score
GAAGATCTCAGTATCGAGACGTGCTAG: 0.177 z-score
TTAGGTTTCGCTCTCGGTTAGTGCTAG: 6.18 z-score
TTAGGTCTCGGACTTGGTTAGTGCTAG: 0.497 z-score
TCACTTTTCATTACTGCACTGTGCTAG: 1.36 z-score
AAGGCTTTGCTTCCTGCAGAGTGCTAG: -0.235 z-score
GACGGTAACCTTTTCCTGACGTGCTAG: 0.153 z-score
GACGCTTTCGACACTGGGGACGTGCTA: 0.492 z-score
TTAGGAGTGGGTCTCGGTTAGTGCTAG: 0.466 z-score
GACGGTTTCCTCCTGCTGACGTGCTAG: 1.46 z-score
GCCGGTCTCGGTATCGGGACGTGCTAG: 2.15 z-score
TTAGGTTACGACACTGGGTTAGTGCTA: -0.161 z-score
GACGGACTGCTTACCCTGACGTGCTAG: -0.324 z-score
TCATTTTTCTTTTATTAACTGTGCTAG: 2.51 z-score
TTAGGTATCGGGTTCGGTTAGTGCTAG: 3.32 z-score
GCTTCCTCACCTGATGCCTCGTGCTAG: 2.43 z-score

Repeated from above (block 4):
GAUCAU: 0.851
AUAUUG: 1.01
GCAACG: 0.878
GGCAGA: 1.01
UUACCA: 0.905
GAGAUG: 1.09
AUAGUG: 1.11
